Experimental data collected from several papers.
Protocols differ between the studies behind these lines. Values joined by “and” are separate records of one study, mostly repeats; a detail may differ. Numbers after ± are the reported error.
DRD4: D(4) dopamine receptor (DRD4, Homo sapiens, UniProt P21917)
Sequence of UniProt P21917 (whole entry, looked up): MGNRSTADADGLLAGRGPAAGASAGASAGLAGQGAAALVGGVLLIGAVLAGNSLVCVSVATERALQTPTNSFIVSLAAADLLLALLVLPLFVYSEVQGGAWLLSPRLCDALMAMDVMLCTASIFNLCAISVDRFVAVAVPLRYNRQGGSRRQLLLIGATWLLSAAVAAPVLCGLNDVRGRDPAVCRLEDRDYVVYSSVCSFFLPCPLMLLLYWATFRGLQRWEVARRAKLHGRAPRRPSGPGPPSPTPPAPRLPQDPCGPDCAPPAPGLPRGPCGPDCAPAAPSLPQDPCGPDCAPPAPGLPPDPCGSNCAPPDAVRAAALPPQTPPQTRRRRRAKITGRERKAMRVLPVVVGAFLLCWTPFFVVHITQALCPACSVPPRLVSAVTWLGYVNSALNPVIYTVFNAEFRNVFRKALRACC
AMY2: Pancreatic alpha-amylase (AMY2, Sus scrofa, UniProt P00690)
Sequence of UniProt P00690 (whole entry, looked up): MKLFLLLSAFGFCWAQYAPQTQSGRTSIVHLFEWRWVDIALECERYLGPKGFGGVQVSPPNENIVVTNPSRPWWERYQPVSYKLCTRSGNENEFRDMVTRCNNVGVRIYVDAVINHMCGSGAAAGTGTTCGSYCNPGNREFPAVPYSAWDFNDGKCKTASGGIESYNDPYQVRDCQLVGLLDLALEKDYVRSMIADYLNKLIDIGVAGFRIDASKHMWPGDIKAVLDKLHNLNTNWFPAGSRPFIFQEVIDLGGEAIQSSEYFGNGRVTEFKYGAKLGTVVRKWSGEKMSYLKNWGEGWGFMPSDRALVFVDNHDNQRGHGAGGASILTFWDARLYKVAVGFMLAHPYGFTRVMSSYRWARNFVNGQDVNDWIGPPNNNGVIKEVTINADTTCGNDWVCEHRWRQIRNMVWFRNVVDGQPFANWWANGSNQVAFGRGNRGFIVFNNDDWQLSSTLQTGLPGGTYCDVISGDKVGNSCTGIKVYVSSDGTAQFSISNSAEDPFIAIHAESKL
HTR5A: 5-hydroxytryptamine receptor 5A (HTR5A, Homo sapiens, UniProt P47898)
Sequence of UniProt P47898 (whole entry, looked up): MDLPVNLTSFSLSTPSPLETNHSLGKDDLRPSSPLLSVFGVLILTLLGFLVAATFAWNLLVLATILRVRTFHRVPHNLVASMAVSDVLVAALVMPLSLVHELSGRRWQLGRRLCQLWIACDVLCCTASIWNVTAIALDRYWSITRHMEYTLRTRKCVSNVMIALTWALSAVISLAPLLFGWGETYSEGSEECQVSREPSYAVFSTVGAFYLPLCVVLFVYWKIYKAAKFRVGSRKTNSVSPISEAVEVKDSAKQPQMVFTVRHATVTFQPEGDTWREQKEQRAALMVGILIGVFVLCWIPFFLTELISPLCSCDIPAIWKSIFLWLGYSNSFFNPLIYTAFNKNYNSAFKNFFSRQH
HTR2B: 5-hydroxytryptamine receptor 2B (HTR2B, Homo sapiens, UniProt P41595)
Sequence of UniProt P41595 (whole entry, looked up): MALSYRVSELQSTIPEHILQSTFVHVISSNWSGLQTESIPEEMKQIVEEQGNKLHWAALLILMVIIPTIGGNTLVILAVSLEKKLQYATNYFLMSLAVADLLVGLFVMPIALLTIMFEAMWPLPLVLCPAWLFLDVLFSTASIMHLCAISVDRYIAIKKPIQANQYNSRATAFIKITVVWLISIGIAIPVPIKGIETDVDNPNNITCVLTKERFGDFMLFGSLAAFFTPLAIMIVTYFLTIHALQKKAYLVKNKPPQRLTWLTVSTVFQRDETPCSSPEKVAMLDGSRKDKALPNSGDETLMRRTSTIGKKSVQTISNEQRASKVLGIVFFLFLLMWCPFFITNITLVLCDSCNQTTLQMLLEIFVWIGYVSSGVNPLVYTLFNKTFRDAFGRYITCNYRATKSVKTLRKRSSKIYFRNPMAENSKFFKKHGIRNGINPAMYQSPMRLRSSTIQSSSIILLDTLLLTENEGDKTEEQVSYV
HDAC11: Histone deacetylase 11 (HDAC11, Homo sapiens, UniProt Q96DB2)
Sequence of UniProt P22001 (whole entry, looked up): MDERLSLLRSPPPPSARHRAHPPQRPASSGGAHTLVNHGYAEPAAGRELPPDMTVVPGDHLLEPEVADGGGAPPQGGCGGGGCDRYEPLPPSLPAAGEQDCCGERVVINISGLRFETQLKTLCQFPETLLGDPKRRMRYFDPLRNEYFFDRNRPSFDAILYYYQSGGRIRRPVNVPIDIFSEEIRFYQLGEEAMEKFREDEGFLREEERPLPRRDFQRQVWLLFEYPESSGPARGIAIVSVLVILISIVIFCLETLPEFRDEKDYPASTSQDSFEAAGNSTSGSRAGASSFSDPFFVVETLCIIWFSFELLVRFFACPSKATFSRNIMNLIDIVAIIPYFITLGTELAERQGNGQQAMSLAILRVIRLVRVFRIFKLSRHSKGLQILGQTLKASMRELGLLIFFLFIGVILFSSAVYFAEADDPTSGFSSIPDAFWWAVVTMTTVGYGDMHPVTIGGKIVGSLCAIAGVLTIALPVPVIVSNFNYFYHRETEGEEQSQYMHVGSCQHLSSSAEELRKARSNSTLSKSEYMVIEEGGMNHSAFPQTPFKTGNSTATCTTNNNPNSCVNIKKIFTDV
Sequence of UniProt Q96DB2 (whole entry, looked up): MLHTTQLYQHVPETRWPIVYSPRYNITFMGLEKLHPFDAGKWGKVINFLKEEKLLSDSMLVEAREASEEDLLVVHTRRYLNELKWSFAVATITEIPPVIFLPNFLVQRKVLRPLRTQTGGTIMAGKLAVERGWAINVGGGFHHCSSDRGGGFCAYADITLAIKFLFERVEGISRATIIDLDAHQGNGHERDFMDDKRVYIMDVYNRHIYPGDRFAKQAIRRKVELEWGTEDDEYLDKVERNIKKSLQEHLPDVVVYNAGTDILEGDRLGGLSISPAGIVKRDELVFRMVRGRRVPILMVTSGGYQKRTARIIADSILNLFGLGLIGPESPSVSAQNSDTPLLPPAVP
Sequence of UniProt Q14524 (whole entry, looked up): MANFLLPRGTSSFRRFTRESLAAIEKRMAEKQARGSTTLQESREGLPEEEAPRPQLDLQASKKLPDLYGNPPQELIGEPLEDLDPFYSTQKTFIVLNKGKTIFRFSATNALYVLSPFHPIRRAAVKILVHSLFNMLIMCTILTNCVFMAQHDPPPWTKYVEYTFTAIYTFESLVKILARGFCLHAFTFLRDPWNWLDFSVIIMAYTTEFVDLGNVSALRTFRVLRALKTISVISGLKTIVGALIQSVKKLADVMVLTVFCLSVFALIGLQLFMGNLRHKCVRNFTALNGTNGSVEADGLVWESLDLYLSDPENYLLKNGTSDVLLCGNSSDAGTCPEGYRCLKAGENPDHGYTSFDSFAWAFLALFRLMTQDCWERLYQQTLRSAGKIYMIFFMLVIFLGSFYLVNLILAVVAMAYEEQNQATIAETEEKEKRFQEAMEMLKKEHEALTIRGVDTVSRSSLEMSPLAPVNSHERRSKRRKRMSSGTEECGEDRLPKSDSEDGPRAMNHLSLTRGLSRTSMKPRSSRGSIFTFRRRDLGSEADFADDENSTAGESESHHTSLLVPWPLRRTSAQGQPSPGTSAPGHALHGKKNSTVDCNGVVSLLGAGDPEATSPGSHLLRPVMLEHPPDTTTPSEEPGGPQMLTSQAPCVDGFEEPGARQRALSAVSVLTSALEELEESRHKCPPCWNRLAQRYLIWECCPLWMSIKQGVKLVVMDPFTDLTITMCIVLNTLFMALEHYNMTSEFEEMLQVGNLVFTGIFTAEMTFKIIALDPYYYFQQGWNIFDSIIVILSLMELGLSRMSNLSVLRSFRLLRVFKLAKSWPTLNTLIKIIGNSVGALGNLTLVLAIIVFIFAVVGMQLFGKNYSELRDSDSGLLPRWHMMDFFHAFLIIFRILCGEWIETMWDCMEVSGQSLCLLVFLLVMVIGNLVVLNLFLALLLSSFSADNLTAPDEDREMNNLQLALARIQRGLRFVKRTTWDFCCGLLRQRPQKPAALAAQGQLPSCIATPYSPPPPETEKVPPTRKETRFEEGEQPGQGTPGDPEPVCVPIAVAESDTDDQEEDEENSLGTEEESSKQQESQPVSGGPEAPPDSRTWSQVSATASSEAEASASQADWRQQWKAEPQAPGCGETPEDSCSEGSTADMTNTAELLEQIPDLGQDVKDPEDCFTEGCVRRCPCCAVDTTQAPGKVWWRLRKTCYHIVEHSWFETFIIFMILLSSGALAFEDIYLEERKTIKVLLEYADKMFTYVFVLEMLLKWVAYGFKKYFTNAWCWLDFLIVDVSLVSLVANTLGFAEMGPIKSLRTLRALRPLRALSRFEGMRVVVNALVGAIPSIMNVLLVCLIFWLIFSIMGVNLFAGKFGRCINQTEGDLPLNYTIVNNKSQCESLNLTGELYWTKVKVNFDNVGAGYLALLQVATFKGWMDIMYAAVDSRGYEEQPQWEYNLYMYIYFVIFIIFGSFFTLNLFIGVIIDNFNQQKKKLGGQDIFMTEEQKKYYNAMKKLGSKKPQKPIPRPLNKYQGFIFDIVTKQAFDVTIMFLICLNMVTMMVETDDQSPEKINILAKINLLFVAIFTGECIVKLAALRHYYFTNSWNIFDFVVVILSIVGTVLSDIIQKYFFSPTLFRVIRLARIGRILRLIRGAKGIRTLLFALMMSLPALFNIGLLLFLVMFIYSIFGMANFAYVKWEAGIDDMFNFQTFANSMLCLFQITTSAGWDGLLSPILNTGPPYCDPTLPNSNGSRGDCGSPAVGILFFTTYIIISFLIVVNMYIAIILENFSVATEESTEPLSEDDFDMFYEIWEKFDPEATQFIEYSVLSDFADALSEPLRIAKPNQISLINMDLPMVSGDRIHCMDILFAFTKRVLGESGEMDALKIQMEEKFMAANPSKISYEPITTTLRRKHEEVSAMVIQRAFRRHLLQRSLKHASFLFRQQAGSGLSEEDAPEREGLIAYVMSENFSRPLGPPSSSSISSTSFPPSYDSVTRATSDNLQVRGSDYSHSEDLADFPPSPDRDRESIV

| Compound | target | assay | test system | setting | how to read | inhibition |
| --- | --- | --- | --- | --- | --- | --- |
| Cc1cc(-c2ccnc3[nH]cc(F)c23)cc(F)c1[C@@]1(O)[C@H](C)CN(C(=O)CN)C[C@@H]1C | AMPK alpha1 and alpha2 | ATP probe binding, KiNativ, measured: Lys1 site | HEK293T cell lysate | 1 µM | – | 30.5% |
| Cc1ncccc1OC[C@@H]1CN(CCN2CCc3ccccc32)CCO1 | DRD4 | radioligand binding | – | concentration not given, together with: [3H]N-methylspiperone | – | 92.7% |
| Cc1cc(=O)oc2ccc(-c3cc(-c4cccs4)nc(N)n3)c(O)c12 | AMY2 | enzyme activity, inhibitor | – | concentration not given | – | 64.3 ± 1.24% |
| O=c1cc(-c2ccc(O)c(O)c2)oc2cc(O)cc(O)c12 | TLR2 (Homo sapiens, UniProt O60603) | SEAP reporter gene, antagonist | HEK-Blue hTLR2 | 10 µM, together with: Pam3CSK4 | – | > 90% |
| COc1ccccc1N1CCN(CCCCN2CCc3ccccc3C2=O)CC1 | HTR5A | radioligand binding | – | concentration not given, together with: [3H]LSD | – | 72% |
| NC/C(=C\F)COc1cccc(Cn2c(=S)[nH]c(=O)c3[nH]cnc32)c1 | SCN5A (Homo sapiens, UniProt Q14524) | peak current, inhibitor, patch clamp | human cells | 10 µM, pulse 9 | – | 9.6% and 17.6% |
| Cc1nc2sccn2c(=O)c1CCN1CCC(=C(c2ccc(F)cc2)c2ccc(F)cc2)CC1 | Diacylglycerol kinase gamma (Dgkg, Rattus norvegicus, UniProt P49620) | enzyme activity, DAG kinase | HEK293T lysate overexpressing | 50 µM, together with: [γ32P]-ATP | baseline: DMSO control | ~63% |
| C#Cc1cc(-c2cc(Nc3nc(N[C@@H](C)c4ccc(F)cn4)ncc3Cl)n[nH]2)ccc1C=O | PRKCI (Homo sapiens, UniProt P41743) | enzyme activity, inhibitor | – | 0.2 µM | – | 31% |
| O=c1cc(-c2ccccc2)oc2cc(O)c(O)c(O)c12 | AMY2 | enzyme activity, inhibitor | – | 50 µM, together with: CNP-G3 substrate | – | 64.04 ± 0.41% |
| COc1cc(C(=O)NS(=O)(=O)c2ccccc2C)ccc1Cc1cn(C)c2ccc(NC(=O)OC3CCCC3)cc12 | Volume-regulated anion channel subunit LRRC8C, part LRRC8A IL1 chimera (LRRC8C, Homo sapiens, UniProt Q8TDW0, L136K) | ion current, inhibitor, whole-cell patch clamp | HCT LRRC8-/- cells | 10 µM, +100 mV | – | 88.9% and 93.4% and 97% and 97.9% and 94.3% |
| O=C1c2ccccc2CCN1CCCCN1CCN(c2cccc(Cl)c2Cl)CC1 | HTR5A | radioligand binding | – | concentration not given, together with: [3H]LSD | – | 89.9% |
| O=C(NO)c1ccc(CN2CCCCc3ccccc32)c(F)c1 | HTR5A | radioligand binding, PDSP radioligand binding | – | 10 µM | – | 1.54% |
| Cc1cc2c(cc1N1C(=O)c3cccc4c(CCCO)ccc(c34)C1=O)n(C)c(=O)n2C (racemic) | Bromodomain-containing protein 2, BD2 (BRD2, Homo sapiens, UniProt P25440) | binding, BROMOscan binding | – | 100 nM | – | 72% |
| Cc1cc(O)c(-c2ccc([C@@H](C)CN(C)C)cc2)c2c1[nH]c(=O)c1sccc12 | MINK1 (Homo sapiens, UniProt Q8N4C8) | inhibitor, KiNativ probe labelling | cell lysate | 0.1 µM | – | 6.29% |
| Clc1cncc(OC[C@H]2CN(CCN3CCc4ccccc43)CCO2)c1 | HTR2B | radioligand binding | – | concentration not given, together with: [3H]LSD | – | 60.5% |
| CCc1oc2ccccc2c1C(=O)c1cc(Br)c(O)c(Br)c1 | SLC22A12 (Homo sapiens, UniProt Q96S37, S238A) | uric acid uptake | HEK293T transfected with SLC22A12 S238A | 0.5 µM, 10 min, 37 °C, mean, together with: [14C]urate 200 µM | – | 47.6% |

| Compound | target | assay | test system | setting | how to read | inhibition |
| --- | --- | --- | --- | --- | --- | --- |
| c1cncc(OC[C@H]2CN(CCN3CCc4ccccc43)CCO2)c1 | HTR2B | radioligand binding | – | concentration not given, together with: [3H]LSD | – | 41.2% |
| O=C(NO)c1cccc(OS(=O)(=O)Oc2ccc3c(c2)OCO3)c1 | HDAC11 | – | – | 10 µM | – | 35% |
| O=C1C[C@@H](c2ccc(O)cc2)Oc2c(Br)c(O)c(Br)c(O)c21 | AMY2 | enzyme activity, inhibitor | – | 50 µM, together with: CNP-G3 substrate | – | 49.5 ± 4% |
| O=C(/C=C/c1cccc(OS(=O)(=O)Oc2ccccc2)c1)NO | HDAC11 | – | – | 10 µM | – | 7% |
| O=C(CN1CCO[C@@H](COc2cccnc2)C1)N1CCc2ccccc21 | DRD4 | radioligand binding | – | concentration not given, together with: [3H]N-methylspiperone | – | 38.9% |
| CC(C)c1noc2ncc(C(=O)c3ccccc3O)cc12 | KCNA3 (Homo sapiens, UniProt P22001) | ion current, inhibitor, whole-cell patch clamp | – | 10 µM | – | 10.3% and 12% and 15.6% and 13% and 3.21% |
| NC(=O)c1ncn([C@@H]2O[C@H](CO[P@@](=O)(O)O[P@](=O)(O)OP(=O)(O)O)[C@@H](O)[C@H]2O)n1 | Non-structural polyprotein pORF1, helicase domain (Hepatitis E virus genotype 1, UniProt P33424) | ATPase activity, inhibitor, colorimetric | – | 56 µM, together with: ATP 100 µM | – | 1.23% |
| OCCCN1CC[C@@H]2C[C@H]1c1cc(-c3ccc(C(F)(F)F)cc3)ccc12 | HTR5A | radioligand binding, PDSP competition binding | – | 10 µM | – | < 50% |
| CC[C@@H]1[C@H](F)C(=O)N[C@@H]1COc1nccc2cc(C(N)=O)c(OC)cc12 | PRPF4B (Homo sapiens, UniProt Q13523) | ATP-site probe binding, ActivX profiling | THP-1 cell lysate | 0.2 mM, Lys1 site | – | 29.8% |
| O=C(CN1CCO[C@H](COc2ccccc2)C1)N1CCc2ccccc21 | DRD4 | radioligand binding | – | concentration not given, together with: [3H]N-methylspiperone | – | 58.5% |
| O=C(NO)c1cccc(OS(=O)(=O)Oc2ccc(-n3ccnc3)cc2)c1 | HDAC11 | – | – | 10 µM | – | 33% |
| O=C(Nc1cccc2c(=O)cc(-c3nnn[nH]3)oc12)c1ccc(OCCCCc2ccccc2)cc1 | Volume-regulated anion channel subunit LRRC8C, part LRRC8A IL1 chimera (LRRC8C, Homo sapiens, UniProt Q8TDW0, Y126F) | ion current, inhibitor, whole-cell patch clamp | HCT LRRC8-/- cells | 3 µM, -100 mV | – | 79.8% and 75.7% and 69.8% and 85.7% |
| COc1ccc(OS(=O)(=O)Oc2cccc(C(=O)NO)c2)cc1OC | HDAC11 | – | – | 10 µM | – | 45% |
| O=C1c2ccccc2CCN1CCCCN1CCN(c2ccccn2)CC1 | HTR2B | radioligand binding | – | concentration not given, together with: [3H]LSD | – | 88.4% |
| CCCCCCCCCCCCNC(=O)CCCCC[C@H](NC(=O)OCc1ccccc1)C(=O)N[C@@H](Cc1c[nH]c2ccccc12)C(=O)NC(C)C | SIRT1 (Homo sapiens, UniProt Q96EB6) | enzyme activity, inhibitor | – | 100 µM | – | < 5% |

Some of these lines once more:
| Compound | target | assay | test system | setting | how to read | inhibition |
| --- | --- | --- | --- | --- | --- | --- |
| O=c1cc(-c2ccc(O)c(O)c2)oc2cc(O)cc(O)c12 | TLR2 (Homo sapiens, UniProt O60603) | SEAP reporter gene, antagonist | HEK-Blue hTLR2 | 10 µM, together with: Pam3CSK4 | – | > 90% |
| COc1ccccc1N1CCN(CCCCN2CCc3ccccc3C2=O)CC1 | HTR5A | radioligand binding | – | concentration not given, together with: [3H]LSD | – | 72% |
| NC/C(=C\F)COc1cccc(Cn2c(=S)[nH]c(=O)c3[nH]cnc32)c1 | SCN5A (Homo sapiens, UniProt Q14524) | peak current, inhibitor, patch clamp | human cells | 10 µM, pulse 9 | – | 9.6% and 17.6% |
